# Measurements pooled from the literature.
# Every numbered part comes from another study and shows a few of its results, in no order.

# Set 1 — technique: universal PBM; form: double-stranded DNA, one strand shown; matrix: in vitro; concentration: not given; reading: higher = stronger binding
# Target: Sal-like protein 4, full length isoform B (SALL4, Homo sapiens, UniProt Q9UJQ4-2, residues 1-616)
# Notes: 8-mer, flanks averaged, mean of replicates
# Residues (chain): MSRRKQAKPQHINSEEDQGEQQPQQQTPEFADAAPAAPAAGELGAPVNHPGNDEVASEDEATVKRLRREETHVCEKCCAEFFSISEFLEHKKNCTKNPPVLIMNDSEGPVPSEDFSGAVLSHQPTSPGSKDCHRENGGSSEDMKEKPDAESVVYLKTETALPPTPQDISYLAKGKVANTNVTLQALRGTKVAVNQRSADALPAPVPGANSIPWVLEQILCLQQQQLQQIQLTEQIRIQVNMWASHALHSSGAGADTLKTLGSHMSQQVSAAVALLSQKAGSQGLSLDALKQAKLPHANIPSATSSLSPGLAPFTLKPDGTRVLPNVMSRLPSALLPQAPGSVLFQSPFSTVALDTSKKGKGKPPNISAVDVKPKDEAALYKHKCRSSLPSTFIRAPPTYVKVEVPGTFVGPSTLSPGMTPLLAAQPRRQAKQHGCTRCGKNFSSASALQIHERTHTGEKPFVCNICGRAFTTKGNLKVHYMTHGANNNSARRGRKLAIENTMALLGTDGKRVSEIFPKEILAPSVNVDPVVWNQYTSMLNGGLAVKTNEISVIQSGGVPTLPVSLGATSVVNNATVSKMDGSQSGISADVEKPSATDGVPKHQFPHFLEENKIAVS
Sequence,E-score
CCGAGCGA,-0.257
CCTCCCAG,-0.351
CGGGTTTC,-0.229
CAGTGTGC,-0.231
CGAGCGAA,-0.197
ATCGCATA,0.209

# Set 2 — technique: protein binding microarray; form: double-stranded DNA, one strand shown; matrix: in vitro; concentration: not given; relative to: not given; reading: higher = stronger binding
# Target: Histone acetyltransferase KAT6A, both winged helices, GST fusion (KAT6A, Homo sapiens, UniProt Q92794, residues 1-181)
# Notes: 8-mer, flanks averaged, mean of 2 arrays, mostly near background
# Residues (chain): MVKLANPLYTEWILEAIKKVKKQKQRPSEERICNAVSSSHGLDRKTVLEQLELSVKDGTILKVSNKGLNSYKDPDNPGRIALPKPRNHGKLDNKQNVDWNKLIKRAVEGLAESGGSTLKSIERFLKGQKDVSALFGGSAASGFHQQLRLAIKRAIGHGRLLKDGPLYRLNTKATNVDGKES
Sequence,E-score
GACCTCAA,-0.128
ACGGAACG,0.238
AAGAGGAC,-0.202
CACGTGAA,0.0369
AGATTCGA,-0.115

# Set 3 — technique: protein-binding microarray; form: double-stranded DNA, one strand shown; matrix: in vitro; concentration: 2540 nM top; notes: 60-bp whole probe; with: salmon DNA 0.4 mg/ml; relative to: random background probes; reading: higher = stronger binding
# Target: Interferon regulatory factor 3, full length, phosphomimetic (IRF3, Homo sapiens, UniProt Q14653, residues 1-427, S386D/S396D/S398D/S402D/T404D/S405D)
# Sequence of UniProt Q14653 (whole entry, unmodified, looked up): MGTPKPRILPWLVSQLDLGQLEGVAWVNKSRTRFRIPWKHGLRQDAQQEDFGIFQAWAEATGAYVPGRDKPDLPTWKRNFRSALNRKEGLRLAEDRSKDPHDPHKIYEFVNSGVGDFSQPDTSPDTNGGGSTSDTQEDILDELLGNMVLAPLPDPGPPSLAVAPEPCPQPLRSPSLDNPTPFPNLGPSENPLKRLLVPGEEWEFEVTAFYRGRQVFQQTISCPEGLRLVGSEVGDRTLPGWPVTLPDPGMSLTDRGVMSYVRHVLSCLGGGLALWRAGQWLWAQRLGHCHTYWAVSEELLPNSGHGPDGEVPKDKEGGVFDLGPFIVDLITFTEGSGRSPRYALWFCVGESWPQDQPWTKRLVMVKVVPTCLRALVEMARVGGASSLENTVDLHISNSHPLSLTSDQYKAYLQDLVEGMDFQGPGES
Sequence,fitted relative affinity [z-score]
GCCTAGCACTAAGATATCGGGTATCGATTAGTGCTAGTCTTGATTCGCTTGACGCTGCTG,0.395
GCCTAGCACGACGATCTCAGACTGGTGACGTGCTAGGTCTTGATTCGCTTGACGCTGCTG,0.304
GCCTAGCACGTAGGTTTCCTTCTCCTTTAGTGCTAGGTCTTGATTCGCTTGACGCTGCTG,9.89
GCCTAGCACTAAGGACTGGGTCTCGGTTAGTGCTAGGTCTTGATTCGCTTGACGCTGCTG,-0.617

# Other studies, line by line
Molecule,target,test,test system,conditions,how to read,endpoint,result
"PhoQ, residues 284 288 289 292 302 303 GLASVI","PhoP, residues 12 14 15 18 19 STWGI (Escherichia coli, UniProt P23836)","Sort-seq, measured: YFP reporter",E. coli,"PhoQ-PhoP variant library, with: 10 µM Mg2+","relative to: high Mg2+ state, higher = stronger signaling",fold induction,4.43
